# Experimental data pooled from the literature.
# Compare with care: the assays were run in different laboratories. ± gives the spread as reported.
# ABCB1: ATP-dependent translocase ABCB1 (ABCB1, Homo sapiens, UniProt P08183)
# UniProt P08183, sequence (whole entry, looked up): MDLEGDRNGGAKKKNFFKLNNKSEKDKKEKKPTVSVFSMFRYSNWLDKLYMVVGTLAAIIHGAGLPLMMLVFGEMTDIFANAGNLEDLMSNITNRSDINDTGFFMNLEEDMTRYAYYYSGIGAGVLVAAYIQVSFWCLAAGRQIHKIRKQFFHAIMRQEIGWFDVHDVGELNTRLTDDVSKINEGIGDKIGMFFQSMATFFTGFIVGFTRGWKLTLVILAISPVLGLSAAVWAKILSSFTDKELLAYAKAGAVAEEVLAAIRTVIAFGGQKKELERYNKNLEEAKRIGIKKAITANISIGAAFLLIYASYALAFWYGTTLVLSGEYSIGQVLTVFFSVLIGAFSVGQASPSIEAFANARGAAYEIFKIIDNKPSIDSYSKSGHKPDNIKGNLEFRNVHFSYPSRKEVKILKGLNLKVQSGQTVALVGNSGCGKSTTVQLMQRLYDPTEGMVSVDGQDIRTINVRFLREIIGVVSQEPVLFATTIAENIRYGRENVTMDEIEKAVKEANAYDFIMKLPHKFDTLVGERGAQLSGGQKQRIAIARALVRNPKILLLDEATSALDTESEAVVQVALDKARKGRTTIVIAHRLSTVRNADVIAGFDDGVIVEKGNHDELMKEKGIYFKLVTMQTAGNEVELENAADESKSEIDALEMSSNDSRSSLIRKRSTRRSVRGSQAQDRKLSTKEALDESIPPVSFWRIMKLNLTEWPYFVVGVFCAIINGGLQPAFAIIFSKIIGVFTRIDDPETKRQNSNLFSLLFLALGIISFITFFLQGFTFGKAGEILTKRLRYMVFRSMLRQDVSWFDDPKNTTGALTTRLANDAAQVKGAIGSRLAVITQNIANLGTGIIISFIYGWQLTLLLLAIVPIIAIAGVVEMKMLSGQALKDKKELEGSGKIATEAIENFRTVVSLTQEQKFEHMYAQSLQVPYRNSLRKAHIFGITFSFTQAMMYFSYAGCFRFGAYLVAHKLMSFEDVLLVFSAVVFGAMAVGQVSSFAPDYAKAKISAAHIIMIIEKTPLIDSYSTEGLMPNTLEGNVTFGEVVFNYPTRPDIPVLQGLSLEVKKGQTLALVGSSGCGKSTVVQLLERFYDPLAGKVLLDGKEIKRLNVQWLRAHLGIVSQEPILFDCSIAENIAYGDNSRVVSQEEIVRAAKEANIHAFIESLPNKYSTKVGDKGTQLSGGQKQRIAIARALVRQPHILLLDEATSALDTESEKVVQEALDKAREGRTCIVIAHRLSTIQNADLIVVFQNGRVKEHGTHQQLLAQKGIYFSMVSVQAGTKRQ
Compound,target or system,assay,system,setting,measurement,value
c1ccc(N(c2ccccc2)c2ccc(-c3ccc(N(c4ccccc4)c4ccc(-c5ccc(N(c6ccccc6)c6ccc(-c7ccc(N(c8ccccc8)c8ccccc8)cc7)cc6)cc5)cc4)cc3)cc2)cc1,Cyprinus carpio,everted gut sac,intestine,"concentration not given, 24 h, 23 °C",concentration in serosal solution,< 0.1 µg/mL
O=C(c1cccc(Cl)c1)N1CCN(c2cc(-c3ccccc3)nc3cc(-c4cccc(Cl)c4)nn23)CC1,ABCB1,"JC-1 efflux, inhibitor",Jurkat-DNR,,IC50,4.19 ± 1.88 µM
Cc1cc(OCc2nnc(SC3CCCC3)n2-c2cccnc2)ccc1-c1ccc(S(C)(=O)=O)cc1,"Huh-7 cells, uninfected",,,"0.5 µM, 5 days",viability,42 ± 4%
CCCOCC(=O)Nc1cc2nc(C3CCCCC3)[nH]c2cc1N(C)C,Vero,"cytotoxicity, Alamar Blue",,"3 days, 37 °C",IC50,< 50 µg/mL
COc1cccc(C(=O)N2CCN(c3cc(-c4ccccc4)nc4cc(-c5cccc(Cl)c5)nn34)CC2)c1,ABCB1,"JC-1 efflux, inhibitor",Jurkat-DNR,,IC50,2.64 ± 0.64 µM
c1ccc2c(c1)ccc1ccccc12,Cyprinus carpio,everted gut sac,intestine,"concentration not given, 24 h, 23 °C",concentration in serosal solution,3550 ± 639 µg/mL
CCc1ccc(C(=O)Nc2cc3nc(C4CCCCC4)[nH]c3cc2N(CC)CC)cc1,Vero,"cytotoxicity, Alamar Blue",,"3 days, 37 °C",IC50,> 100 µg/mL
O=C(c1cccnc1)N1CCN(c2cc(-c3ccccc3)nc3cc(-c4cccc(Cl)c4)nn23)CC1,ABCB1,"JC-1 efflux, inhibitor",Jurkat-DNR,,IC50,0.57 ± 0.08 µM
CC(C)(C)c1cc(CCC(=O)OCC(COC(=O)CCc2cc(C(C)(C)C)c(O)c(C(C)(C)C)c2)(COC(=O)CCc2cc(C(C)(C)C)c(O)c(C(C)(C)C)c2)COC(=O)CCc2cc(C(C)(C)C)c(O)c(C(C)(C)C)c2)cc(C(C)(C)C)c1O,Cyprinus carpio,everted gut sac,intestine,"concentration not given, 24 h, 23 °C",concentration in serosal solution,0.3 ± 0.2 µg/mL
CC[C@H](C)[C@H](NC(=O)[C@H](Cc1ccc(O)cc1)NC(=O)[C@@H](NC(=O)[C@@H](N)CCCN=C(N)N)C(C)C)C(=O)N[C@@H](Cc1c[nH]cn1)C(=O)N1CCC[C@H]1C(=O)N[C@@H](Cc1ccccc1)C(=O)O,trypsin,"substrate, LC-MS",,"20 µM, 4 h, pH 7.4, together with: Aβ1-28 10 µM, MINP(β1-14) and MINP(β15-28)",peptide hydrolysed,87.1 ± 4.4%
COc1ccc(CC(=O)Nc2cc3nc(C4CCCCC4)[nH]c3cc2N(C)C)cc1,Vero,"cytotoxicity, Alamar Blue",,"3 days, 37 °C",IC50,> 100 µg/mL
Cc1ccc(Nc2nccc(N(C)c3ccc4c(C)n(C)nc4c3)n2)cc1S(N)(=O)=O,ABCB1,bidirectional transport,MDCK-MDR1,"5 µM, 240 min, together with: canertinib 5 µM",Papp A-B,3.3 ± 0.1 ×10⁻⁶ cm/s
O=C(NCc1ccccc1)Nc1cc2nc(C3CCCCC3)[nH]c2cc1N1CCCC1,Vero,"cytotoxicity, Alamar Blue",,"3 days, 37 °C",IC50,> 100 µg/mL
C#C[C@]1(COP(=O)(O)OP(=O)(O)OP(=O)(O)O)O[C@@H](n2cnc3c(N)nc(F)nc32)C[C@@H]1O,human PBMC tumour model,,"host not given, plasma","oral, 5 mg, single dose, fasted",Tmax,9 h
CC(C)(C)c1cc(C(C)(C)C)c(NC(=O)c2c[nH]c3ccccc3c2=O)cc1O,Calu-3,,,"concentration not given, 4 h, basal to apical transport",permeated amount,3 to 12%
COc1ccccc1-c1cc(N2CCN(C(=O)c3ccoc3)CC2)n2nc(-c3ccccc3)cc2n1,ABCB1,"JC-1 efflux, inhibitor",Jurkat-DNR,,IC50,4.52 µM
COCCOC(=O)Nc1cc2nc(C3CCCCC3)[nH]c2cc1N1CCCC1,Vero,"cytotoxicity, Alamar Blue",,"3 days, 37 °C",IC50,> 100 µg/mL
O=C(c1ccoc1)N1CCN(c2cc(-c3ccoc3)nc3cc(-c4ccccc4)nn23)CC1,ABCB1,"JC-1 efflux, inhibitor",Jurkat-DNR,,IC50,1.6 µM
CCCN(CCC)c1cc2[nH]c(C3CCCCC3)nc2cc1NC(=O)c1ccccc1,Vero,"cytotoxicity, Alamar Blue",,"3 days, 37 °C",IC50,> 100 µg/mL
O=C(c1ccoc1)N1CCN(c2cc(-c3cccc(F)c3)nc3cc(-c4ccccc4)nn23)CC1,ABCB1,"JC-1 efflux, inhibitor",Jurkat-DNR,,IC50,7.07 µM
CN(C)c1cc2[nH]c(C3CCCCC3)nc2cc1NC(=O)c1ccc(F)cc1,Vero,"cytotoxicity, Alamar Blue",,"3 days, 37 °C",IC50,> 100 µg/mL

# A few entries again:
Compound,target or system,assay,system,setting,measurement,value
COc1cccc(C(=O)N2CCN(c3cc(-c4ccccc4)nc4cc(-c5cccc(Cl)c5)nn34)CC2)c1,ABCB1,"JC-1 efflux, inhibitor",Jurkat-DNR,,IC50,2.64 ± 0.64 µM
O=C(c1cccnc1)N1CCN(c2cc(-c3ccccc3)nc3cc(-c4cccc(Cl)c4)nn23)CC1,ABCB1,"JC-1 efflux, inhibitor",Jurkat-DNR,,IC50,0.57 ± 0.08 µM
C#C[C@]1(COP(=O)(O)OP(=O)(O)OP(=O)(O)O)O[C@@H](n2cnc3c(N)nc(F)nc32)C[C@@H]1O,human PBMC tumour model,,"host not given, plasma","oral, 5 mg, single dose, fasted",Tmax,9 h
